Measured values of several laboratories.
Every numbered part comes from another study and shows a few of its results, in no order. Substitutions count along the parent as printed.

Series 1 — target: CCND2, cyclin fold, Cln2 fusion (human); technique: yeast growth competition, sequencing; medium: yeast; notes: weak parent motif; reference: not given; direction: higher = stronger binding; endpoint: normalised enrichment score
Starting sequence: RBL2 docking peptide (human); STTRRRLFVENDS
Variant = R6K; value = 0.11
Variant = D12W; value = 0.181
Variant = L7H; value = 0.0771
Variant = R4W; value = -0.305
Variant = S1C; value = 0.632
Variant = F8G; value = 0.0929
Variant = E10I; value = -0.234
Variant = R5W; value = 0.0553

Series 2 — technique: DHFR PCA, deep sequencing; medium: yeast; with: (+)-ABA 0.11 µM; reference: wild-type fitted maximum; direction: higher = stronger binding; endpoint: relative binding score
Target: ABI1, truncated, D143A, DHFR fusion (Arabidopsis thaliana)
Notes: methotrexate growth selection, single substitutions
Starting sequence: PYL1, truncated, DHFR fusion (Arabidopsis thaliana); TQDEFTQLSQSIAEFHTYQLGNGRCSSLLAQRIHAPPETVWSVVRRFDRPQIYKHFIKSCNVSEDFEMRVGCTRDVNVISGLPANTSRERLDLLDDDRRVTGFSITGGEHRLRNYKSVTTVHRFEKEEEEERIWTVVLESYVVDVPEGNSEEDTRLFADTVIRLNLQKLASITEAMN
Variant = K126N; value = 56.7%
Variant = W134E; value = 47.2%
Variant = S42C; value = 1.65%
Variant = A175S; value = 32.9%
Variant = I52Q; value = 16.7%
Variant = K168V; value = 2.24%
Variant = R163A; value = 22.9%
Variant = D96F; value = -10.1%

Series 3 — technique: competition protein-binding microarray; molecule type: double-stranded DNA, one strand shown; medium: in vitro; concentration: 2 µM; with: Pho4 competitor, 0.05 µM; direction: higher = stronger binding; endpoint: fluorescence intensity; shared flanks, not repeated: … GTCTTGATTCGCTTGACGCTGCTG
Target: Centromere-binding protein 1, full length, His-tagged (CBF1, Saccharomyces cerevisiae, UniProt P17106, residues 1-351)
Chain of UniProt P17106 (whole entry, looked up): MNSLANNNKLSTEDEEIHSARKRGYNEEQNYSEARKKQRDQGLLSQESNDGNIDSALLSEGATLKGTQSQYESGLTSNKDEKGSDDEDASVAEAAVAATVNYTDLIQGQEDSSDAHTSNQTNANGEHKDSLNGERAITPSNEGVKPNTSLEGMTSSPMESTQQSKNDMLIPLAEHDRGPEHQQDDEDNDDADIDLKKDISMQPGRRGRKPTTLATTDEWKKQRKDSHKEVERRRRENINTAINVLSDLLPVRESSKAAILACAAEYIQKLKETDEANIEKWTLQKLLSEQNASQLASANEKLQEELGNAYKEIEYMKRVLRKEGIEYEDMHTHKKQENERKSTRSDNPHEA
Notes: whole 60-bp probe, lowest competitor level
Strand = CTTTCCCGATCTTTTCACGTGAACTTAGCACATTTG; value = 1050 a.u.
Strand = TGCGCAACAACTTGTCACCGTACTTTATGTCTAGAA; value = 76.1 a.u.
Strand = TCTTGAAGATGGTGCAAACAAAGTTCTGTGGGATTC; value = 66.5 a.u.
Strand = CAGGACTCCATCCATTACATGACAAGGGAAGCGCCC; value = 59.8 a.u.
Strand = TTAGCTAATTTATCCCTCGTGGAATCTTGGAAGGAA; value = 82.3 a.u.
Strand = TGCGCAACAACTTTTCACGTGTTTTTATGTCTAGAA; value = 1270 a.u.
Strand = TCAAGCAGAAGAAAGCACGTGGCCGAACGCTTACCT; value = 1290 a.u.
Strand = ATATATCTACTCCATCACGTTGCAAGACCCATCACA; value = 255 a.u.

Further values, each from its own experiment
Substance = PhoQ, residues 284 288 289 292 302 303 TVTVVA; target = PhoP, residues 12 14 15 18 19 SMASL (Escherichia coli, UniProt P23836); test = Sort-seq, refers to: YFP reporter; test system = E. coli; setting = PhoQ-PhoP variant library, with: 10 µM Mg2+; how to read = reference: high Mg2+ state, higher = stronger signaling; endpoint = fold induction; value = 9.5

For quick reference, copied from above (series 3):
Strand = TCAAGCAGAAGAAAGCACGTGGCCGAACGCTTACCT; value = 1290 a.u.
Strand = ATATATCTACTCCATCACGTTGCAAGACCCATCACA; value = 255 a.u.
